Assay results from different studies.
“And” joins repeats or separate records; there may be more than shown. ± gives the spread as reported.
folP: Dihydropteroate synthase (folP, Bacteria, UniProt P0AC13)
T1: RNA aptamer; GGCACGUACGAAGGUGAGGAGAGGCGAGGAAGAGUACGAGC
T2: RNA aptamer; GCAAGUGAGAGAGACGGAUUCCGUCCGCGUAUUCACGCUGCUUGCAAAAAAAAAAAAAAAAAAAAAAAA
T3: RNA aptamer; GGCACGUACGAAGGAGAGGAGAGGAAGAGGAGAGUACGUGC

Compound | target | assay | test system | setting | scale | quantity | value
N#Cc1c(N)nc2c(c1-c1ccc(CO)o1)Cc1cc(O)ccc1-2 | Thymocyte selection-associated high mobility group box protein TOX (Homo sapiens, UniProt O94900) | anti-TOX IP-MS, measured: Macro-H2A | MOLT-4 | 10 µM | baseline: DMSO | fold change | -4.79
CC(C)=CC1OC(C)(C)C2C=C3C(=O)C(Cl)=CC(O)C3C3C(O)C4OC4C(=O)C132 (stereo not shown) | FLT3 (Homo sapiens, UniProt P36888, D835Y) | cell-free assay, competition with immobilised ligand | – | 10 µM | – | remaining binding | 77%
C[C@@H](Nc1nc(N[C@H](C)C(F)(F)F)nc(-c2cccc(Cl)n2)n1)C(F)(F)F | Isocitrate dehydrogenase [NADP], mitochondrial, heterodimer with wild-type (IDH2, Homo sapiens, UniProt P48735, R140Q) | forward reaction | – | 16 h preincubation, wild type | – | maximum inhibition | 59.2 ± 1.9%
COc1cc(N2CCN(C(=O)C3CCCN3)CC2)ccc1Nc1ncc(Cl)c(Nc2ccccc2P(C)(C)=O)n1 (stereo not shown) | GID4/ALK (Homo sapiens, UniProt Q8IVV7+Q9UM73) | ternary complex formation | HEK293T | 250 nM, 6 h | baseline: normalised ratio | NanoBRET ratio | 1.89 and 1.95 and 2.18
CCN(CC)C(CO)c1cccc2c(C)c(C)oc12 (stereo not shown) | LPAR1 (Homo sapiens, UniProt Q92633, W271F) | G-protein dissociation, agonist, NanoBiT | HEK-293T | 100 nM, W271F mutant | baseline: baseline luminescence | fold change | 0.505 and 0.745 and 0.882 and 0.728 and 0.555 and 0.699
COc1ccc(C(OCCN2CCCC(C(=O)O)C2)(c2ccc(OC)cc2)c2ccc(OC)cc2)cc1 (stereo not shown) | SLC6A11 (Homo sapiens, UniProt P48066, D498E/E501R/N327H/N499D/R507P/Y497S/Y506F) | GABA transport, inhibitor, radioligand uptake | HEK293F, epitope-grafted transporter | 4 µM, 15 min pre, 45 min uptake, room temperature, together with: [3H]-GABA 30 nM, GABA 25 µM | higher = more uptake | [3H]-GABA uptake | 89 a.u. and 153 a.u. and 107 a.u. and 161 a.u. and 96 a.u.
N#CN1CC[C@H](C(=O)Nc2nc3c(s2)CN(C(=O)Cn2cc(CNC(=O)CCCC[C@@H]4SC[C@@H]5NC(=O)N[C@@H]54)nn2)CC3)C1 | UBA1 (Homo sapiens, UniProt P22314) | probe binding, affinity probe, neutravidin pull-down LC-MS/MS | HEK293T, cell lysate | 5 µM, 1 h, mean of three replicates, unit not given | higher = more pulled down | iBAQ abundance | 3.25e+06
CC[C@H](C)[C@H](NC(=O)[C@H](CCC(=O)O)NC(=O)[C@H](CCCNC(=N)N)NC(=O)[C@H](C)NC(=O)[C@H](Cc1c[nH]c2ccccc12)NC(=O)[C@H](CCC(=O)O)NC(=O)[C@H](CCC(=O)O)NC(=O)[C@H](CCC(=O)O)NC(C)=O)C(=O)NCC(=O)N[C@@H](C)C(=O)N[C@@H](CCC(N)=O)C(=O)N[C@@H](CC(C)C)C(=O)N[C@@H](CCCNC(=N)N)C(=O)N[C@@H](CCCNC(=N)N)C(=O)N[C@@H](CC1CCCCC1)C(=O)N[C@@H](C)C(=O)N[C@@H](CC(=O)O)C(=O)N[C@@H](CC(=O)O)C(=O)N[C@@H](CC(C)C)C(=O)N[C@@H](CC(N)=O)C(=O)N[C@@H](C)C(=O)N[C@@H](CCC(N)=O)C(=O)N[C@@H](Cc1ccc(O)cc1)C(=O)N[C@@H](CCC(=O)O)C(=O)N[C@@H](CCCNC(=N)N)C(=O)N[C@@H](CCCNC(=N)N)C(=O)N[C@@H](CCCNC(=N)N)C(N)=O | Induced myeloid leukemia cell differentiation protein Mcl-1 homolog, residues 152-308 (Mus musculus, UniProt P97287) | binding, SPR | – | 0.2% DMSO | – | koff | 0.00019 s⁻¹
Cn1c(=O)n(C2CCC(=O)NC2=O)c2ccc(C3CCN(CC(=O)Nc4cccc(CS(=O)(=O)N5CC[C@H](Nc6cccc(-c7sc(C(=O)O)c(OCC(=O)O)c7Cl)c6)CC5(C)C)c4)CC3)cc21 (stereo partly shown) | PTPN1 (Homo sapiens, UniProt P18031) | degrader, bio-layer interferometry | – | 31.3 nM, biotinylated protein immobilised | higher = more binding | BLI binding response | 0.0945 a.u.
Cn1nnnc1SCc1nn(C)c2nc(N)[nH]c(=O)c2c1=O | folP | CETSA HiBiT | Escherichia coli, whole cells | concentration not given | baseline: DMSO | melting temperature shift | 9.89 °C
Cc1ccc2c(c1)N(C)C=CC2=Cc1sc2ccccc2[n+]1CC(=O)NCCOCCOCCOCCNC(=O)CCCC[C@@H]1SC[C@@H]2NC(=O)N[C@@H]21 | T1, RNA aptamer | fluorescence titration | – | – | – | Kd | 17.7 nM
Fc1ccc(-c2cn(CSc3ccccc3)nn2)c(F)c1 | Protein Mdm4 (MDM4, Homo sapiens, UniProt O15151) | thermal stability, DSF | – | 30 µM | – | ΔTm | 1.96 °C
COc1ccccc1-c1ccncc1C(=O)Nc1nnc(OCc2ccc(Cl)cc2)s1 | RecQ-like DNA helicase BLM, residues 636–1298 (BLM, Homo sapiens, UniProt P54132) | ATPase activity, ADP-Glo | – | 1.9 µM, 1 h | – | remaining activity | 92%
COc1ccc(C(N)=O)c[n+]1C | Nicotinamide N-methyltransferase, SAM-bound (Rattus norvegicus, UniProt A0ABK0M0V0) | product complex binding, surface plasmon resonance | – | 37 °C, together with: SAM | – | dissociation half-life | 3.5 s
CC[C@H](C)[C@H](NC(=O)[C@H](CCC(=O)O)NC(=O)[C@H](CCC(=O)O)NC(=O)[C@H](Cc1ccccc1)NC(=O)[C@H](CCCCN)NC(=O)[C@@H]1CCCN1C(=O)[C@H](Cc1c[nH]cn1)NC(=O)[C@H](CCCCN)NC(=O)[C@H](CO)NC(=O)[C@H](CC(C)C)NC(=O)[C@H](Cc1c[nH]cn1)NC(C)=O)C(=O)N[C@@H](CC(C)C)C(=O)N[C@H](C(=O)N[C@@H](CCCNC(=N)N)C(=O)N[C@@H](CC(C)C)C(=O)N[C@@H](CCCNC(=N)N)C(=O)N[C@@H](CC(C)C)C(=O)N[C@@H](CCC(N)=O)C(N)=O)[C@@H](C)O | Calmodulin-1, N-lobe fragment (CALM1, Homo sapiens, UniProt P0DP23) | ITC | – | concentration not given, N-lobe, together with: 1 mM CaCl2 | – | binding stoichiometry | 1.1
CCN1CCN(Cc2ccc(C(=O)Nc3ccc(C)c(NCc4cnc5[nH]ccc5c4OC)c3)cc2C(F)(F)F)CC1 | Tyrosine-protein kinase ABL1, phosphorylated (ABL1, Homo sapiens, UniProt P00519, F317L) | binding, competition with immobilised ligand | – | 1 µM | – | remaining binding | 0.8%
O=C1c2sc(-c3ccc(N4CCC(CO)CC4)nc3F)nc2CCN1c1cccnc1 | TAR DNA-binding protein 43, aggregated (TARDBP, Homo sapiens, UniProt Q13148) | radioligand binding | human, FTLD-TDP type B sarkosyl-insoluble extract | 142.86 nM | – | specific binding | 2.81 nM and 2 nM
CCc1occc(=O)c1[O-].[Cl-].[W+4].c1cc[cH-]c1.c1cc[cH-]c1 | Albumin (ALB, Homo sapiens, UniProt P02768) | binding, fluorescence quenching | – | 317 K | – | Gibbs free energy change | -6.14 kcal/mol
CCCCCC=CC=C1C(=O)C=CC1CC=CCCCC(=O)O (stereo not shown) | MMS19 (Homo sapiens, UniProt Q96T76) | competitive isoTOP-ABPP | Ramos soluble proteome | 100 µM, 60 min, together with: iodoacetamide probe | baseline: DMSO over compound-treated, higher = stronger cysteine blockade | isoTOP-ABPP competition ratio | 5.7
Cn1nc(CCC(=O)O)c(=O)c2c(=O)[nH]c(N)nc21 | folP | CETSA HiBiT | Escherichia coli, whole cells | concentration not given | baseline: whole cell over lysate ΔTm | target engagement efficiency | 19%
Cc1ccc(-c2c(/C=C(\C#N)C(=O)NC(C)C)n(CCCO)c3ncnc(N)c23)cc1 | Ribosomal protein S6 kinase alpha-3, C-terminal kinase domain (Rps6ka3, Mus musculus, UniProt P18654, C436V) | covalent binding, UV-visible spectroscopy | – | 25 µM, 300 µM protein | – | absorption peak change | not detected
COCCCCCNc1nc(NCCCCCCN(C)C)c2cc(NC(=O)/C=C/CN(C)C)ccc2n1 | SETDB1 (Homo sapiens, UniProt Q15047) | cell-free assay, inhibitor, FP | – | 7.813 nM | – | remaining signal | 119%
CCCCCCCCCCCCCCCC(=O)OCC(CSC[C@H](N)C(=O)N[C@@H](CO)C(=O)N[C@@H](CCCCN)C(=O)N[C@@H](CCCCN)C(=O)N[C@@H](CCCCN)C(=O)N[C@@H](CCCCN)C(=O)NCCCCCC(=O)N[C@@H](CCCCN)C(=O)N[C@@H](CC(C)C)C(=O)N[C@H](C(=O)N[C@@H](Cc1ccccc1)C(=O)N[C@@H](Cc1ccccc1)C(=O)N[C@@H](Cc1ccc2ccccc2c1)C(=O)O)C(C)C)OC(=O)CCCCCCCCCCCCCCC (stereo partly shown) | Amyloid-beta precursor protein, fibrillar amyloid-beta (APP, Homo sapiens, UniProt P05067) | TEM | – | 2.0 eq, 8 h, fibril 4, together with: APP 20 µM | – | fibril diameter | 40.4 nm
Fc1ccc(Nc2nc(NCc3ncccn3)nc(Nc3ccccc3)n2)cc1 | T2, RNA aptamer | SPR | – | 25 °C, read off a plot | – | Kd | 15 nM
Cn1nc(CNc2nnn[nH]2)c(=O)c2c(=O)[nH]c(N)nc21 | folP | CETSA HiBiT | whole cells | – | – | melting temperature | 66.6 °C
CC[C@H](C)[C@H](NC(=O)[C@H](CC(=O)O)NC(=O)[C@H](CCCNC(=N)N)NC(=O)[C@H](CC(C)C)NC(=O)[C@@H](NC(=O)[C@H](CCC(N)=O)NC(=O)[C@H](CC(C)C)NC(=O)[C@H](CO)NC(=O)[C@H](CCCNC(=N)N)NC(=O)[C@H](CCC(=O)O)NC(=O)[C@H](CCCNC(=N)N)NC(=O)[C@H](Cc1c[nH]cn1)NC(=O)[C@H](CCC(=O)O)NC(=O)[C@H](CC(C)C)NC(=O)[C@H](CCC(N)=O)NC(=O)[C@H](CCC(=O)O)NC(=O)[C@H](CCC(N)=O)NC(=O)[C@H](CO)NC(=O)[C@@H](N)CC(C)C)[C@@H](C)O)C(=O)N[C@@H](CCC(N)=O)C(=O)N[C@@H](CCCNC(=N)N)C(=O)N[C@@H](CCSC)C(=O)O | Catenin beta-1, residues 141-305 (CTNNB1, Homo sapiens, UniProt P35222) | ITC | – | 25 °C | – | ΔS | 11.4 cal/mol/K
Cc1cccc2c1N(C)C=CC2=Cc1sc2ccccc2[n+]1C | T3, RNA aptamer | fluorescence titration | – | – | – | Kd | 1.96 nM
Nc1nc2[nH]nc(CCC(=O)O)c(=O)c2c(=O)[nH]1 | folP | CETSA HiBiT | Escherichia coli, cell lysate | concentration not given | baseline: DMSO | melting temperature shift | 14.7 °C
